Results gathered from unrelated publications.
Each numbered part is a random draw from the data of one study; scales do not carry over between parts. Substitutions count along the parent as printed.
Sequence of UniProt Q9FGV1 (whole entry, looked up): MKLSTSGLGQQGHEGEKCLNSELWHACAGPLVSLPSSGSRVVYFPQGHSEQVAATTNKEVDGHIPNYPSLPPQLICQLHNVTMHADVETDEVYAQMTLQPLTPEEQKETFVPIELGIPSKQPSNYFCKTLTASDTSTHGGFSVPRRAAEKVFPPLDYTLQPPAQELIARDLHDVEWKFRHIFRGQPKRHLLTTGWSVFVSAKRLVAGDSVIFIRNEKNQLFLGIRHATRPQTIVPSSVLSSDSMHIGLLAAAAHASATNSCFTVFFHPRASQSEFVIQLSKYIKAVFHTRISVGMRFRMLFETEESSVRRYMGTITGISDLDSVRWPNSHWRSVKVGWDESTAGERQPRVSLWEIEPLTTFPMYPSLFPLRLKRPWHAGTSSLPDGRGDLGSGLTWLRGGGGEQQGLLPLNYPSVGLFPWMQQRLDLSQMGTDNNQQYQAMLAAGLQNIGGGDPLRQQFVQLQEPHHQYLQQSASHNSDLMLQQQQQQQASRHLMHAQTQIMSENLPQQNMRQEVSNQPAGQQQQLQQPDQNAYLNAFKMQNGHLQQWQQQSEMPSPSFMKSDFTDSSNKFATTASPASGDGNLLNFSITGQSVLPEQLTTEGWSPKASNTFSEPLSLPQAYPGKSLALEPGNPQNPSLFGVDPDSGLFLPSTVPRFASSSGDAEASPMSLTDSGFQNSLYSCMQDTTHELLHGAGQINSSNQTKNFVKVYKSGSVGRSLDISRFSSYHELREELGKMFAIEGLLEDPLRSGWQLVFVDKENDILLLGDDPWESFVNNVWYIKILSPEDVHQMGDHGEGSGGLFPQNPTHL
Sequence of UniProt Q8H174 (whole entry, looked up): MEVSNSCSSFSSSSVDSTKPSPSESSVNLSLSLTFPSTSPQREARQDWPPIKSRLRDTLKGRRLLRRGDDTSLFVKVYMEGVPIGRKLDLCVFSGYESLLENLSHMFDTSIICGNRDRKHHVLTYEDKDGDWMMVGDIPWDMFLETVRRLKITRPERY
Sequence of UniProt Q8RYC6 (whole entry, looked up): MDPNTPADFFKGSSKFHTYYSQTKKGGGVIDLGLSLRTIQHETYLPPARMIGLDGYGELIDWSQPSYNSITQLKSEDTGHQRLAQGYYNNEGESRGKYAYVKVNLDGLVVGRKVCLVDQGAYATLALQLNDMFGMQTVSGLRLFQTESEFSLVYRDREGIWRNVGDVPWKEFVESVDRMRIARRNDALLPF
Sequence of UniProt Q84WU6 (whole entry, looked up): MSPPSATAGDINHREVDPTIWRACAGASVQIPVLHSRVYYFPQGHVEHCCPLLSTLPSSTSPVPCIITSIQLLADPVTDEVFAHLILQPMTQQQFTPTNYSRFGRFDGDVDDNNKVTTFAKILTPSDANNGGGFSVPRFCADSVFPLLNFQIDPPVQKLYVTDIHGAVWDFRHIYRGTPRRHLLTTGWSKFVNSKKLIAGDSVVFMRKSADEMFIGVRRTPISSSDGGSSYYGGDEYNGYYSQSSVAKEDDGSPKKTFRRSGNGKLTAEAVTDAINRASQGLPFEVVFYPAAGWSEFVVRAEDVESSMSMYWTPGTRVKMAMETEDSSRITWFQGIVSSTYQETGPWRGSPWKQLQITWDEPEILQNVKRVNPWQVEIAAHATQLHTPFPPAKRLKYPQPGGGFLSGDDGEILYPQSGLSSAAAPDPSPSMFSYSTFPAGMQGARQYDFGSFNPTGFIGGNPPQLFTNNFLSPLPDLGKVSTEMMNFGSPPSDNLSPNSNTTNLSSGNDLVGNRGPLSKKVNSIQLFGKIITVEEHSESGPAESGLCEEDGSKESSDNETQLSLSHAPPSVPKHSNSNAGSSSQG

Sample 1 — technique: DHFR PCA, deep sequencing; sample: yeast; added: (+)-ABA 1.4 µM; reference: wild-type fitted maximum; reading: higher = stronger binding
Target: ABI1, truncated, D143A, DHFR fusion (Arabidopsis thaliana)
Setting: methotrexate growth selection, single substitutions
Starting sequence: PYL1, truncated, DHFR fusion (Arabidopsis thaliana); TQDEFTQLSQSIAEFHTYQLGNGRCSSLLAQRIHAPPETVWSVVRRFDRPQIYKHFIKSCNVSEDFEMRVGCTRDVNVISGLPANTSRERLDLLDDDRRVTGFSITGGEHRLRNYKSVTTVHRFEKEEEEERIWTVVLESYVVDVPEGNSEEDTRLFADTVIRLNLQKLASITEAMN
Variant	relative binding score
L82H	8.98%
L166M	16.7%
Q7L	58.9%
F56K	-3.56%
I133K	44.9%
G23D	40.8%
M176K	41.7%
R24Q	77.7%

Sample 2 — Molecule: B1 (IAA29); technique: two-hybrid; reading: higher = firmer interaction
B1: IAA29 (Arabidopsis thaliana, UniProt Q93WC4); chain MELDLGLSLSPHKSSKLGFNFDLNKHCAIEGAASCLGTEKLRFEATFGLGNVEENCYMPKQRLFALNGQPNEEDEDPLESESSIVYDDEEENSEVVGWPPVKTCMIKYGSYHHRHIRNHHHCPYHHRGRRITAMNNNISNPTTATVGSSSSSSISSRSSMYVKVKMDGVAIARKVDIKLFNSYESLTNSLITMFTEYEDCDREDTNYTFTFQGKEGDWLLRGDVTWKIFAESVHRISIIRDRPCAYTRCLF
partner	conditions	how to read	positive tests
ARF17 (Arabidopsis thaliana, UniProt Q84WU6)	weak activation fusion	reference: out of 3 tests	2
IAA32 (Arabidopsis thaliana, UniProt Q8RYC6)	–	reference: out of 4 tests	0
ARF8 699-811 (Arabidopsis thaliana, UniProt Q9FGV1)	–	reference: out of 4 tests	2
IAA31 (Arabidopsis thaliana, UniProt Q8H174)	–	reference: out of 2 tests	0

Sample 3 — technique: protein-binding microarray; molecule type: double-stranded DNA, one strand shown; sample: in vitro; concentration: not given; reading: higher = stronger binding
Target: Myc proto-oncogene protein, bHLH-zipper, MAX partner unstated (MYC, Homo sapiens, UniProt P01106, residues 368-449)
Sequence of UniProt P01106 (368-449, looked up): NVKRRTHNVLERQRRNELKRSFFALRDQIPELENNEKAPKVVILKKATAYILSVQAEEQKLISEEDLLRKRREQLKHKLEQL
Setting: k-mer, scored over probes, only values ≥0.25
Sequence	E-score
CGCGTGAC	0.425
GCGTGCGA	0.414
ATGTGCAG	0.291
ACCACGTG	0.498
ACCCCACG	0.302
CACGCGAA	0.366
CGTGCGTC	0.431
GCACGCAC	0.389

Further values, each from its own experiment
Molecule	target	assay	system	conditions	endpoint	value
KEAVNHFHL	HLA class I histocompatibility antigen, A alpha chain, allele A*80:01 (Homo sapiens, UniProt P04439)	peptide-MHC binding	peptide	concentration not given	binding	inactive

A few entries again (sample 3):
Sequence	E-score
ACCCCACG	0.302
